Results from different studies.
Compare with care: the assays were run in different laboratories. Values joined by “and” are separate records of one study, mostly repeats; a detail may differ. Numbers after ± are the reported error.

`OC(CCN1CCCCC1)(c1ccccc1)C1CC2C=CC1C2` (stereo not shown): “EEG Alpha1-power Fz-Cz” 2.1 µV² (resting-state EEG; healthy elderly humans; oral, 4 mg, eyes open, LS mean).
`C[C@H](Oc1ccc(Br)cc1-c1ccon1)C(=O)O` — result for “difference from placebo”: -0.112% (first response latency; human, tibialis anterior muscle; 100 mg, 30 Hz, single ascending dose).
With `CC(c1cc2ccccc2s1)N(O)C(N)=O` (stereo not shown) the LTB4 level was 1170 ± 577 pg/mL (human blood; 3 µM, together with: A23187).
`CN1CCN(C(=O)c2ccc3cc(CCNc4ccnc5ccc(C#N)cc45)ccc3c2)CC1` — result for leukaemia growth: “decreased” (bioluminescence imaging; mouse, MV4-11 AML xenograft; oral, 40 mg/kg twice daily, 4 weeks).
`CC(C)(C)c1sc2ncnc(Oc3c(F)cccc3OC(F)(F)F)c2c1-c1ccc(Cl)cc1`: “thermal paw withdrawal latency” “increased” (naive humanized MrgprX1 mice; oral, 16 mg/kg; reference: predrug baseline).
`COc1ccc(-c2cncc(N[C@@H](C)c3cccc(NC(=O)c4cncc(C)c4)c3)n2)cc1OC`: “delta delta Ct” -1.81 (measured: rno-miR-410-3p; rat SU5416/hypoxia model, lung; dose not given, unit not given; reference: SU5416/hypoxia vehicle).
For `N#Cc1ccc2c(c1)[C@H]1CCCN(C(=O)c3ccc4[nH]cnc4c3)[C@H]1C2`, “total urinary corticosteroids” read 104 % change (human, urine; 240 mg, 336 h, day 14 over day -1; reference: placebo and baseline).
`C=CCn1c(=O)c2cnc(Nc3ccc(N4CCN(C)CC4)cc3)nc2n1-c1ccc2c(n1)[C@@](O)(CC)CC2` — result for “tumour volume difference”: 2280 ± 109 mm3 (A2780 xenograft, BALB/c nude mice; oral, 80 mg/kg once daily x 8, day 9).
`C[C@H]1O[C@@H](O[C@H]2CC[C@@]3(C)[C@@H](CC[C@]4(C)[C@@H]3C=C[C@]35OC[C@@]6(CCC(C)(C)C[C@H]63)[C@@H](O)C[C@]54C)[C@]2(C)CO)[C@H](O)[C@@H](O[C@@H]2O[C@H](CO)[C@@H](O)[C@H](O)[C@H]2O)[C@H]1O` gave an ALT activity of 22 U/L and 29.7 U/L and 30.2 U/L and 25.4 U/L and 27.8 U/L (chronic-plus-binge ethanol mice, plasma; oral, 10 mg/kg/day for 7 d, 168 h).
For `N#Cc1ccn2c(-c3ccncc3)c(-c3ccc(F)cc3)nc2c1`, “log2 fold change” read -0.114 (kinase binding, competitor, MIB/MS competition, measured: CMK1; Candida albicans cell lysate; 100 nM; reference: DMSO).
`NC(=O)c1cnc2[nH]ccc2c1N[C@@H]1[C@@H]2CC3C[C@H]1C[C@@](O)(C3)C2` — result for “change from baseline”: -3.42% (flow cytometry, measured: CD4+ naive T cells; Japanese healthy subjects, peripheral blood; oral, 100 mg twice daily, day 7).
`COC(=O)c1c(C)[nH]c(C)c1C(=O)c1ccccc1Cc1ccccc1` gave a serotonin-induced response of 0.784 and 0.703 and 0.802 and 0.688 (high-content microscopy; DRG neurons, rat; dose not given, unit not given, together with: DAMGO 0.1; reference: no DAMGO).
For `CC(C)[C@H](NC(=O)[C@H](Cc1ccc(O)cc1)NC(=O)[C@H](Cc1ccc(O)cc1)NC(=O)[C@@H]1CCCN1C(=O)[C@H](CCC(=O)O)NC(=O)[C@H](CCC(=O)O)NC(=O)[C@H](Cc1c[nH]c2ccccc12)NC(=O)[C@@H]1CCCN1C(=O)[C@@H](NC(=O)[C@H](CCC(N)=O)NC(=O)c1ccc2c(c1)C(=O)OC21c2ccc(O)cc2Oc2cc(O)ccc21)C(C)C)C(=O)N[C@H](C(=O)N[C@@H](CCCCN)C(=O)N[C@@H](CCCCN)C(=O)N[C@@H](CO)C(=O)N[C@@H](CO)C(=O)NCC(=O)NCC(N)=O)C(C)C`, “share of responses” read 0% (nerve penetration depth; human head and neck surgery, nerves; 500 mg, very much improved; reference: white light).
`Cc1cn(-c2ccc3n(c2=O)CCN([C@@H](C)[C@@H]2CC[C@H](c4cc(F)c(Cl)cc4C(F)(F)F)O2)C3=O)cn1` — result for “change from baseline”: 11.2% (measured: amyloid beta 38; human, non-elderly, cerebrospinal fluid; 40 mg once daily, 14 days, sampled 336 h; reference: placebo).
For `CN(C(=O)n1cnc(-c2ccc[n+]([O-])c2)c1)C1CCCCC1`, the AUC(0-tau) was 122 ng·h/mL (measured: LEA; human, plasma; 10 mg once daily, day 10).
`CN[C@@H]1COc2c(S(=O)(=O)NC(=O)Nc3c4c(cc5c3CCC5)CCC4)cnn2C1` gave an inhibition of 95.4% (measured: IL-1β; human participants, whole blood ex vivo; 300 mg twice daily, multiple doses, 12 h, together with: LPS/ATP; reference: baseline).
For `COC(=O)CCc1ccc(OCC(O)CNC(C)C)cc1` (stereo not shown), “systolic blood pressure” read 109 mm Hg (healthy male humans; concentration not given, 15 min, baseline before dosing, together with: saline).
For `[Cl-].[Cl-].[Pt+2].[Ru+2].c1ccc(-c2nc3ccccc3nc2-c2ccccn2)nc1.c1cnc2c(c1)ccc1cccnc12.c1cnc2c(c1)ccc1cccnc12`, “negative activation entropy” read 166 ± 4 J/(mol·K) (chloride substitution, UV-vis kinetics; aqueous buffer; concentration not given, pH 7.2, first substitution step, together with: thiourea).
For `C=CCn1c(=O)c2cnc(Nc3ccc(N4CCN(C)CC4)cc3)nc2n1-c1cccc(C(C)(C)O)n1`, the progressive disease was 21% (RECIST; HNSCC patients; dose not given, single agent first week, then cisplatin/docetaxel).
The estradiol concentration of `N#Cc1ccc(C(c2ccc(C#N)cc2)n2cncn2)cc1` is reported as 630 ± 142 pg/mL (ELISA; human patients, tumour homogenate; 10 mg daily).
For `N#Cc1ccc2c(-c3ccncc3)c(-c3ccc(F)cc3)nn2c1`, “log2 fold change” read -0.139 (kinase binding, competitor, MIB/MS competition, measured: PKH3; Candida albicans cell lysate; 1 µM; reference: DMSO).
For `CCCn1cc(C)c2c(=O)[nH]c(-c3cc(S(=O)(=O)N4CCN(CC)CC4)ccc3OCC)nc21`, “time to maximum SBP change” read 1.97 h (supine; median).
For `CCN(Cc1nc2c(N)nc3cc(-c4cc[nH]n4)ccc3c2[nH]1)C(C)=O`, the fold change was 2.6 (Luminex, measured: IL-1β; cancer patients, serum; 4000 µg monotherapy, first 24 h; reference: baseline).
The T/C of `O=C1N(Cc2ccccc2Cl)c2ccccc2C12NN=C(c1ccccc1)S2` (stereo not shown) is reported as 71% (PANC-1 xenograft, mouse; intravenous, 947 mg/kg twice daily, subcutaneous xenograft; reference: vehicle).
For `CN(C)C(=O)Nc1cccc(-c2ccc(N(C)C)cc2)c1`, the iWAT weight was 4.12% and 3.78% and 5.16% and 4.35% and 3.36% and 4.73% (mouse high-fat diet; dose not given; reference: body weight).
For `CC[C@H](C)[C@H](NC(=O)[C@H](Cc1ccccc1)NC(=O)[C@H](CC(=O)O)NC(=O)[C@H](CCCNC(=N)N)NC(=O)[C@H](C)NC(=O)[C@H](C)NC(=O)[C@H](CC(C)C)NC(=O)[C@H](CC(N)=O)NC(=O)[C@H](CC(=O)O)NC(=O)[C@H](CC(C)C)NC(=O)[C@@H](NC(=O)[C@@H](NC(=O)[C@H](CC(N)=O)NC(=O)[C@H](CCSC)NC(=O)[C@H](CCC(=O)O)NC(=O)[C@H](CC(=O)O)NC(=O)[C@H](CO)NC(=O)[C@H](Cc1ccccc1)NC(=O)[C@H](CO)NC(=O)CNC(=O)[C@H](CC(=O)O)NC(=O)CNC(=O)[C@@H](N)Cc1c[nH]cn1)[C@@H](C)O)[C@@H](C)CC)C(=O)N[C@@H](CC(N)=O)C(=O)N[C@@H](Cc1c[nH]c2ccccc12)C(=O)N[C@@H](CC(C)C)C(=O)N[C@H](C(=O)N[C@@H](CCC(N)=O)C(=O)N[C@H](C(=O)N[C@@H](CCCCN)C(=O)N[C@H](C(=O)N[C@H](C(=O)N[C@@H](CC(=O)O)C(=O)O)[C@@H](C)O)[C@@H](C)CC)[C@@H](C)O)[C@@H](C)CC`, “small intestine weight increase” read 35% (mouse; twice daily, dose not given, 2 weeks; reference: vehicle).
`O=C1CCc2ccc(OCCCCN3CCN(c4cccc(Cl)c4Cl)CC3)cc2N1` — result for “stopping or switching”: 51% (patients CYP2D6 NM; 12 months).
`CC(C)C[C@@H](NC(=O)[C@H](C)NC(=O)CNC(=O)[C@@H](NC=O)C(C)C)C(=O)N[C@@H](C)C(=O)N[C@@H](C(=O)N[C@H](C(=O)N[C@@H](C(=O)N[C@@H](Cc1c[nH]c2ccccc12)C(=O)N[C@H](CC(C)C)C(=O)N[C@@H](Cc1ccc2[nH]ccc2c1)C(=O)N[C@H](CC(C)C)C(=O)N[C@@H](Cc1c[nH]c2ccccc12)C(=O)N[C@@H](C(=O)N[C@@H](Cc1c[nH]c2ccccc12)C(=O)NCCO)C(C)C)[C@H](C)O)C(C)C)C(C)C` has an EC50 of 114 ± 22.7 nM (H+/Na+ transport, pyranine pH-gradient; EYPC/cholesterol LUVs 2:1).
`O[C@H]1CCCN[C@@H]1CCCn1cnc2c(Cl)c(Cl)ccc21` has a maximum reduction of 6.45% (ELISA, measured: Pro-C6; healthy human volunteers, serum; intraduodenal, 25 mg twice daily, day 14, multiple ascending dose).
Under “negative activation entropy”, `[Cl-].[Cl-].[Pt+2].[Ru+2].c1ccc(-c2nc3cc4ccccc4cc3nc2-c2ccccn2)nc1.c1cnc2c(c1)ccc1cccnc12.c1cnc2c(c1)ccc1cccnc12` is recorded as 101 ± 4 J/(mol·K) (chloride substitution, UV-vis kinetics; aqueous buffer; concentration not given, pH 7.2, second substitution step, together with: guanosine 5'-monophosphate).
Under “time glucose at most 70 mg/dL”, `OC[C@H]1O[C@@H](c2ccc(F)c(Cc3cc4ccccc4s3)c2)[C@H](O)[C@@H](O)[C@@H]1O` is recorded as 10.6 ± 9.33 % change (continuous glucose monitoring; Japanese type 1 diabetes patients; 25 mg/day, day 1; reference: baseline).
The ED50 of `O=C(NOC[C@H](O)CO)c1ccc(F)c(F)c1Nc1ccc(I)cc1F` is reported as 0.8 mg/kg (mouse HCT-116 KRAS G13D xenograft; oral, once daily).
`Cn1cc([C@H]2C[C@H]3CSC(N)=N[C@@]3(c3ccc(F)cc3F)CO2)cn1` — result for “brain Aβ40 level”: 1.31 ng/g (measured: Aβx-40; wild-type mouse, brain; subcutaneous, 50 mg/kg, 3 h).
`NC/C(=C\F)COc1cccc(Cn2c(=S)[nH]c(=O)c3[nH]cnc32)c1` has a fibrosis area of 1.09% and 0.74% and 0.27% and 0.41% and 0.6% and 1.92% and 1.2% (mouse, unilateral ureteral obstruction, right kidney (control); dose not given).
`C[C@H]1C[C@H]2CSC(N)=N[C@@]2(c2nc(NC(=O)c3ccc(OC(F)F)cn3)cs2)CO1` — result for “percent change from baseline”: -87.1% (measured: Aβ1-40; healthy adults, plasma; 275 mg once daily, day 7; reference: placebo).
`CS(=O)(=O)CCNCc1ccc(-c2ccc3ncnc(Nc4ccc(OCc5cccc(F)c5)c(Cl)c4)c3c2)o1` gave an ED50 of less than 25 mg/kg (tumour growth; BT-474 orthotopic xenograft, mouse; oral, daily for 28 days).
`CC(C)NCC(O)c1ccc(O)c(O)c1` (stereo not shown) gave a sarcomere length of 1.72 µm (ventricular cardiomyocytes, C57BL/6 mouse; dose not given, 0.092 s).

A few entries again:
`CC(C)NCC(O)c1ccc(O)c(O)c1` (stereo not shown) gave a sarcomere length of 1.72 µm (ventricular cardiomyocytes, C57BL/6 mouse; dose not given, 0.092 s).
`CC(C)(C)c1sc2ncnc(Oc3c(F)cccc3OC(F)(F)F)c2c1-c1ccc(Cl)cc1`: “thermal paw withdrawal latency” “increased” (naive humanized MrgprX1 mice; oral, 16 mg/kg; reference: predrug baseline).
The ED50 of `O=C(NOC[C@H](O)CO)c1ccc(F)c(F)c1Nc1ccc(I)cc1F` is reported as 0.8 mg/kg (mouse HCT-116 KRAS G13D xenograft; oral, once daily).
`O[C@H]1CCCN[C@@H]1CCCn1cnc2c(Cl)c(Cl)ccc21` has a maximum reduction of 6.45% (ELISA, measured: Pro-C6; healthy human volunteers, serum; intraduodenal, 25 mg twice daily, day 14, multiple ascending dose).
The T/C of `O=C1N(Cc2ccccc2Cl)c2ccccc2C12NN=C(c1ccccc1)S2` (stereo not shown) is reported as 71% (PANC-1 xenograft, mouse; intravenous, 947 mg/kg twice daily, subcutaneous xenograft; reference: vehicle).
For `[Cl-].[Cl-].[Pt+2].[Ru+2].c1ccc(-c2nc3ccccc3nc2-c2ccccn2)nc1.c1cnc2c(c1)ccc1cccnc12.c1cnc2c(c1)ccc1cccnc12`, “negative activation entropy” read 166 ± 4 J/(mol·K) (chloride substitution, UV-vis kinetics; aqueous buffer; concentration not given, pH 7.2, first substitution step, together with: thiourea).
